Experimental data from different studies.
Each numbered part is a random draw from the data of one study; scales do not carry over between parts. Substitutions count along the parent as printed.
Sequence of UniProt P21127 (whole entry, looked up): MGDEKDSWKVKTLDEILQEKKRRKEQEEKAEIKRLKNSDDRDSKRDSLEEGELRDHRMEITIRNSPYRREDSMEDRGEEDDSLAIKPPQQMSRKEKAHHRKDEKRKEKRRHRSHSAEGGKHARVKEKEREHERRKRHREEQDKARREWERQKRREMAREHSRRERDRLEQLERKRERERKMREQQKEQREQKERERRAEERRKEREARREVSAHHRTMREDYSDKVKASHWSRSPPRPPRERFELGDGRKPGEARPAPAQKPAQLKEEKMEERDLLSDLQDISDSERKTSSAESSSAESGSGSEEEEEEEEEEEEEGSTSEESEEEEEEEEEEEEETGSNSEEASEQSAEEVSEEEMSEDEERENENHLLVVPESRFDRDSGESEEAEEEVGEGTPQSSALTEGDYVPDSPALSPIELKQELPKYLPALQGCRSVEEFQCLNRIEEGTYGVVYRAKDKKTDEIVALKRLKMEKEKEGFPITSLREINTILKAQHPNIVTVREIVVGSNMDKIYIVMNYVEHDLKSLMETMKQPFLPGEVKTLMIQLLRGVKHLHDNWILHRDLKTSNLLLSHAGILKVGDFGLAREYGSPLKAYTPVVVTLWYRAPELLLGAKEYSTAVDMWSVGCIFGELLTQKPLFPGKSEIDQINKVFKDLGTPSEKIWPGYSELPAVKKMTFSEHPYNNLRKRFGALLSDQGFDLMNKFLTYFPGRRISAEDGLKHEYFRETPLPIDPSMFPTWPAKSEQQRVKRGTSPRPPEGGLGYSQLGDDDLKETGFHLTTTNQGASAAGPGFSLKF
Sequence of UniProt Q8IVW4 (whole entry, looked up): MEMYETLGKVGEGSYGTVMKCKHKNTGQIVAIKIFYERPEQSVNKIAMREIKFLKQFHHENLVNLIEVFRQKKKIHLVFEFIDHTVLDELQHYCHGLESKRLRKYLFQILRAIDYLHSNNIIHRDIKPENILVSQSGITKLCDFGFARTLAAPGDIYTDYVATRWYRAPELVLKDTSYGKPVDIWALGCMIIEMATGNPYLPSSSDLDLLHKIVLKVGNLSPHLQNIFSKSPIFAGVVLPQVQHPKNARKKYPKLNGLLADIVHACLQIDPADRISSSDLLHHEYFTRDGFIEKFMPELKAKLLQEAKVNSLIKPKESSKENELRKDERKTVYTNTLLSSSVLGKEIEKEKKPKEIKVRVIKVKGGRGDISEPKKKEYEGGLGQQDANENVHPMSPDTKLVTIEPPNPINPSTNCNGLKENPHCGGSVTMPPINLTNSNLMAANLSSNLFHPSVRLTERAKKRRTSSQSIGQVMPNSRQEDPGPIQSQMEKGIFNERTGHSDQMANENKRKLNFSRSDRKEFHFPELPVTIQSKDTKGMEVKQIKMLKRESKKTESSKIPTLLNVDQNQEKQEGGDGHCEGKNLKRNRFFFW
Sequence of UniProt P35916 (whole entry, looked up): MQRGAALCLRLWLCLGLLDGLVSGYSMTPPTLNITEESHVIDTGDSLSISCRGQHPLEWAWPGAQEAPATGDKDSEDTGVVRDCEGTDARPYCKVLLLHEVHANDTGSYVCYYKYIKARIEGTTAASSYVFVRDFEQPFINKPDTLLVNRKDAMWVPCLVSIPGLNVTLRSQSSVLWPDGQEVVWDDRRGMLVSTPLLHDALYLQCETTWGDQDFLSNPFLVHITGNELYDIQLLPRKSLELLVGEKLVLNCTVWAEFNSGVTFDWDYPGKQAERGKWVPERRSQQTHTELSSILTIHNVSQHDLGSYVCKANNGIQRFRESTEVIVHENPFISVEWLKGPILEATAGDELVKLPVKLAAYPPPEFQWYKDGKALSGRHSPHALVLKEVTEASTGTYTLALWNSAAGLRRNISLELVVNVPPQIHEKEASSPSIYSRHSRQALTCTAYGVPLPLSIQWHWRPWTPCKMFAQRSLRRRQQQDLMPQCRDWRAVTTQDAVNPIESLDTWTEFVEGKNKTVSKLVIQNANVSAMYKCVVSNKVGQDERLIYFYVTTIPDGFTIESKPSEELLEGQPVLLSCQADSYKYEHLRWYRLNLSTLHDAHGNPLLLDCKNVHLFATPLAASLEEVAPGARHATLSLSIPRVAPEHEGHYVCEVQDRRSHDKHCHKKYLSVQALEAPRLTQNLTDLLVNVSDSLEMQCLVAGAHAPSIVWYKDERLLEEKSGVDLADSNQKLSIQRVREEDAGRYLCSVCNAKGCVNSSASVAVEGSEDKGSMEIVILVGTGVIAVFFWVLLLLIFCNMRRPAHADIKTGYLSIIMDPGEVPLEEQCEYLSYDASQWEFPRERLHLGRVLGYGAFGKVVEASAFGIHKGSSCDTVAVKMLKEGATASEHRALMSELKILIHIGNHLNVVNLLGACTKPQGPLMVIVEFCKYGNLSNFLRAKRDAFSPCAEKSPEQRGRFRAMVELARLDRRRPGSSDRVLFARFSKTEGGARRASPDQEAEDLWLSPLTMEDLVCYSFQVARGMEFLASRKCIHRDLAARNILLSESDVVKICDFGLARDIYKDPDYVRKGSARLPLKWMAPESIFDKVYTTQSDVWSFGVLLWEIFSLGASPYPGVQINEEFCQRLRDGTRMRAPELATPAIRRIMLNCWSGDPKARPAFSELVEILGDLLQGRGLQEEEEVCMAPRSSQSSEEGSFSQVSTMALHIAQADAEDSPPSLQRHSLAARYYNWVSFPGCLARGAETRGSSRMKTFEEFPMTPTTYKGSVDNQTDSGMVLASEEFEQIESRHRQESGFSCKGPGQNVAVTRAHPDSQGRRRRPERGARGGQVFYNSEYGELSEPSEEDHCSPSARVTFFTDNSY
Sequence of UniProt Q9UPE1 (whole entry, looked up): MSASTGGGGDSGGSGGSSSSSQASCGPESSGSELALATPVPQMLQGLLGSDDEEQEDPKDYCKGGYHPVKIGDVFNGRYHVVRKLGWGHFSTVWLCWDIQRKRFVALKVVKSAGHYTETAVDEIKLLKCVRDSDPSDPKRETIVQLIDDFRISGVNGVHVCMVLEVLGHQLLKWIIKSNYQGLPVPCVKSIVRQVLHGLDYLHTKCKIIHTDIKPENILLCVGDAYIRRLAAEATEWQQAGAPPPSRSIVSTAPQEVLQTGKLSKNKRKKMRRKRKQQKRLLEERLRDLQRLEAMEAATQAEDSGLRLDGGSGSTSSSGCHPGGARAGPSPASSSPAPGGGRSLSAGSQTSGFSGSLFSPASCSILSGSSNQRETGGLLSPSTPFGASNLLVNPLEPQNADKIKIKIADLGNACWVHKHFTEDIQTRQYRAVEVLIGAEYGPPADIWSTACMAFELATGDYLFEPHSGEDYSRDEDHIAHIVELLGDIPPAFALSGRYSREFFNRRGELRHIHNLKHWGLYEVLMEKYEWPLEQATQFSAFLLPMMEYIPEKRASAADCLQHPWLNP
Sequence of UniProt P68400 (whole entry, looked up): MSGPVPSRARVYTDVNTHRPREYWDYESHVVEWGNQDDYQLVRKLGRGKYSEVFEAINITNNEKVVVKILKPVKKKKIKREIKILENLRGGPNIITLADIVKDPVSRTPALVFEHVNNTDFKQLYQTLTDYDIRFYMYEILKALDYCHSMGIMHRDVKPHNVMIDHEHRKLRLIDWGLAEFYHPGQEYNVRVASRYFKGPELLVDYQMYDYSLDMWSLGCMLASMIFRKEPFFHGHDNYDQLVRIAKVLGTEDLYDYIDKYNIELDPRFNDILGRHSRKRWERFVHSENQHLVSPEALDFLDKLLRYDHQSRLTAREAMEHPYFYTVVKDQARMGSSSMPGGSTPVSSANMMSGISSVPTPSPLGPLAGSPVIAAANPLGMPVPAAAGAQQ
Sequence of UniProt Q8IVH8 (whole entry, looked up): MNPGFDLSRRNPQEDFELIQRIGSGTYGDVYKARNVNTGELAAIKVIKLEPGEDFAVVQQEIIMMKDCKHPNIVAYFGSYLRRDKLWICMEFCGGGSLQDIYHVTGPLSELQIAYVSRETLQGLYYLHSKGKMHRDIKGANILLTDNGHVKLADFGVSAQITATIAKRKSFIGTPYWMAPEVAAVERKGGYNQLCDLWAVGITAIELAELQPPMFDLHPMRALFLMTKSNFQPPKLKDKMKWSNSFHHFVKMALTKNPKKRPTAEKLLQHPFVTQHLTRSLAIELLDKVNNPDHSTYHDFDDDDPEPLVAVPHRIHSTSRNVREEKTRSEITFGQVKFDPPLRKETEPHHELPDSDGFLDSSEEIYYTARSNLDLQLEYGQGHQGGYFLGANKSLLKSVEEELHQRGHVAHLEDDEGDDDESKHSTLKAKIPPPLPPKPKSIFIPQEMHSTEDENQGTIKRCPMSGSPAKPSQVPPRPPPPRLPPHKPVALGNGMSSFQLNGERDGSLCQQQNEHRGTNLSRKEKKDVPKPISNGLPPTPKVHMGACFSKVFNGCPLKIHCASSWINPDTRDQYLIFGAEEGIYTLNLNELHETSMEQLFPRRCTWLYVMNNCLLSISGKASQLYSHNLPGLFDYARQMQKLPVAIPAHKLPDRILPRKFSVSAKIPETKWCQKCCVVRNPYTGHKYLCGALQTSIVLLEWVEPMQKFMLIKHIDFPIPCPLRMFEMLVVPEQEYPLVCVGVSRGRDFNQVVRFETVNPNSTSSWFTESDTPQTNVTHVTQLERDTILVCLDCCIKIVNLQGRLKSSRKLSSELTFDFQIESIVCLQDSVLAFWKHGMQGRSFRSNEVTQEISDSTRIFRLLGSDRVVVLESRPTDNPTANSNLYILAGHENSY

Set 1
Target: Prothrombin, mature alpha-thrombin (F2, Homo sapiens, UniProt P00734)
Technique: aptamer microarray, sandwich
Molecule type: DNA with 2'F-ANA
Sample: in vitro
Tested at: 200 nM
Notes: whole 15-mer aptamer, many near background
Together with: Cy3 exosite-II aptamer, 400 nM
Direction: higher = stronger binding
Strand: GGTTGGTGTGGTTGG
For `2'F-ANA at 3 4 8 10 14`, “mean fluorescence intensity” read 235 a.u.
`2'F-ANA at 1 2 3 4 5 7 8 9 12 14 15`: “mean fluorescence intensity” 59.3 a.u.
Under “mean fluorescence intensity”, `2'F-ANA at 2 3 8 10 11 14` is recorded as 274 a.u.
`2'F-ANA at 1 3 4 5 8 10 14`: “mean fluorescence intensity” 43.7 a.u.
`2'F-ANA at 2 3 9 10 11 14` — result for “mean fluorescence intensity”: 291 a.u.
`2'F-ANA at 1 7 8 9 10 11` — result for “mean fluorescence intensity”: 56.4 a.u.
`2'F-ANA at 1 2 4 5 6 11 12 13 14`: “mean fluorescence intensity” 47.8 a.u.
For `2'F-ANA at 1 5 7 8 9 12 13 14 15`, “mean fluorescence intensity” read 48.8 a.u.

Set 2
Target: Serine/threonine-protein kinase 24 (STK24, Homo sapiens, UniProt Q9Y6E0)
Sequence of UniProt Q9Y6E0 (whole entry, looked up): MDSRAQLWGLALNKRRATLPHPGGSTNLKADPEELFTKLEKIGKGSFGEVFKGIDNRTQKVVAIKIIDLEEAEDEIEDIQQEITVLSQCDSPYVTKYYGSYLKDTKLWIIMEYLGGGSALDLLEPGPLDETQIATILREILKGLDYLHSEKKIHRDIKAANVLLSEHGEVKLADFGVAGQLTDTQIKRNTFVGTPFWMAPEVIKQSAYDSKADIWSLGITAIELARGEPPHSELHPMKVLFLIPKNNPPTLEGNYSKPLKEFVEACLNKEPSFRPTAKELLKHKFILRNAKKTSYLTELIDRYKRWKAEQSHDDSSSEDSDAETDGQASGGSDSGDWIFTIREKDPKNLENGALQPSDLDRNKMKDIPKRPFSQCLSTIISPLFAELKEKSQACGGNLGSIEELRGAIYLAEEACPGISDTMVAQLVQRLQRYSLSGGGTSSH
Effect on: enzyme activity
Action: inhibitor
Tested at: 0.5 µM
Reference: control
`Cn1sc(=O)n(Cc2ccccc2)c1=O` has a remaining activity of 105%.
The remaining activity of `O=S(=O)(c1cccc2cnccc12)N1CCCNCC1` is reported as 70.2%.
For `OCC(O)CCON=C1C(c2c(O)[nH]c3ccccc23)=Nc2ccccc21` (stereo not drawn), the remaining activity was 51.9%.
`Cc1nc(-c2ccccc2)c(-c2ccncc2)o1` has a remaining activity of 96.7%.
`O=C(CCCc1ccc(-c2ccccc2F)cc1)Nc1ccc(O)cc1` has a remaining activity of 88.9%.
For `COc1cc2nccc(Oc3ccc(NC(=S)NC(=O)c4ccccc4C)cc3)c2cc1OC`, the remaining activity was 101%.
`Nc1ncnc2n[nH]c(Nc3ccc(F)cc3)c12` has a remaining activity of 81.6%.
`NCCNc1ncc(C(N)=O)c(Nc2cccc(C(F)(F)F)c2)n1` gave a remaining activity of 95%.
With `CCOC(=O)c1c(C)[nH]c(/C=C2\C(=O)Nc3ccccc32)c1C` the remaining activity was 82.5%.
`Nc1[nH]nc2nc3ccccc3nc12` gave a remaining activity of 89.1%.
With `CN(C)c1ccc(C=C2C(=O)Nc3ccccc32)cc1` the remaining activity was 96.7%.
`O=C1NC(=O)C(c2cn(CCCO)c3ncccc23)=C1c1cnccn1` gave a remaining activity of 72.1%.
`Cc1ccc(NC(=O)c2ccc(CN3CCN(C)CC3)cc2)cc1Nc1nc(-c2cccnc2)cs1` gave a remaining activity of 104%.
For `Cn1c2ccccc2c2c3c(c4c5ccccc5n(CCC#N)c4c21)CNC3=O`, the remaining activity was 62.8%.

Set 3
Compound: COc1cc(-c2cn(C3CCc4ccccc4N(CC(F)(F)F)C3=O)nn2)ccc1-n1ccc(C)n1 (stereo not drawn)
Tested at: 1 µM
The remaining binding was 100% (Tyrosine-protein kinase SYK (SYK, Homo sapiens, UniProt P43405); cell-free assay, competition with immobilised ligand).
It gave 77% for remaining binding (Casein kinase I isoform gamma-1 (CSNK1G1, Homo sapiens, UniProt Q9HCP0); cell-free assay, competition with immobilised ligand).
It gave 99% for remaining binding (Serine/threonine-protein kinase MAK (MAK, Homo sapiens, UniProt P20794); binding, competition with immobilised ligand).
For Mitogen-activated protein kinase kinase kinase kinase 3 (MAP4K3, Homo sapiens, UniProt Q8IVH8); cell-free assay, competition with immobilised ligand: remaining binding read 100%.
For SRSF protein kinase 3 (SRPK3, Homo sapiens, UniProt Q9UPE1); cell-free assay, competition with immobilised ligand: remaining binding read 100%.
For Cyclin-dependent kinase-like 3 (CDKL3, Homo sapiens, UniProt Q8IVW4); binding, competition with immobilised ligand: remaining binding read 88%.
Insulin-like growth factor 1 receptor (IGF1R, Homo sapiens, UniProt P08069); cell-free assay, competition with immobilised ligand — remaining binding: 100%.
For Cyclin-dependent kinase 11B (CDK11B, Homo sapiens, UniProt P21127); cell-free assay, competition with immobilised ligand: remaining binding read 100%.
Ankyrin repeat and protein kinase domain-containing protein 1 (ANKK1, Homo sapiens, UniProt Q8NFD2); cell-free assay, competition with immobilised ligand — remaining binding: 78%.
For Tyrosine-protein kinase Fes/Fps (FES, Homo sapiens, UniProt P07332); cell-free assay, competition with immobilised ligand: remaining binding read 100%.
The remaining binding was 71% (Ribosomal protein S6 kinase alpha-5, C-terminal kinase domain (RPS6KA5, Homo sapiens, UniProt O75582); cell-free assay, competition with immobilised ligand).
It gave 67% for remaining binding (Tyrosine-protein kinase ABL1, phosphorylated (ABL1, Homo sapiens, UniProt P00519, F317I); binding).
For Vascular endothelial growth factor receptor 3 (FLT4, Homo sapiens, UniProt P35916); cell-free assay, competition with immobilised ligand: remaining binding read 100%.
Serine/threonine-protein kinase 24 (STK24, Homo sapiens, UniProt Q9Y6E0); cell-free assay, competition with immobilised ligand — remaining binding: 97%.
The remaining binding was 81% (Casein kinase II subunit alpha (CSNK2A1, Homo sapiens, UniProt P68400); cell-free assay, competition with immobilised ligand).
It gave 92% for remaining binding (ALK tyrosine kinase receptor (ALK, Homo sapiens, UniProt Q9UM73); cell-free assay, competition with immobilised ligand).
It gave 100% for remaining binding (cAMP-dependent protein kinase catalytic subunit alpha (PRKACA, Homo sapiens, UniProt P17612); cell-free assay, competition with immobilised ligand).
It gave 100% for remaining binding (Ephrin type-B receptor 6 (EPHB6, Homo sapiens, UniProt O15197); cell-free assay, competition with immobilised ligand).

Set 4
Target: CCND1, cyclin fold, Cln2 fusion (human)
Technique: yeast growth competition, sequencing
Sample: yeast
Notes: weak parent motif
Reference: not given
Direction: higher = stronger binding
Starting sequence: E2F1 docking peptide (human); PPVKRRLDLETDH
`D8G` — result for “normalised enrichment score”: 0.297.
For `P2W`, “normalised enrichment score” read -0.336.
`L7N`: “normalised enrichment score” 0.113.
For `P1A`, “normalised enrichment score” read 0.607.
`D8V`: “normalised enrichment score” 0.798.
`R5P`: “normalised enrichment score” -0.0195.
For `L7F`, “normalised enrichment score” read -0.293.
`D8C` — result for “normalised enrichment score”: 0.0249.

A few entries again (set 3):
For Cyclin-dependent kinase 11B (CDK11B, Homo sapiens, UniProt P21127); cell-free assay, competition with immobilised ligand: remaining binding read 100%.
The remaining binding was 100% (Tyrosine-protein kinase SYK (SYK, Homo sapiens, UniProt P43405); cell-free assay, competition with immobilised ligand).
For Tyrosine-protein kinase Fes/Fps (FES, Homo sapiens, UniProt P07332); cell-free assay, competition with immobilised ligand: remaining binding read 100%.
